Measured values pooled from the literature.
Each numbered part is a random draw from the data of one study; scales do not carry over between parts.

Series 1
Target: Protein kinase C gamma type (PRKCG, Homo sapiens, UniProt P05129)
Observed: enzyme activity
Action: inhibitor
Tested at: 0.5 µM
Relative to: control
SMILES | remaining activity [%]
FC(F)(F)c1ccc(/C=C/c2nc(COc3ccc(CCCCn4ccnn4)cc3)co2)cc1 | 95.2
N#CC(c1ccnc(NCCc2cccnc2)n1)c1nc2ccccc2s1 (stereo not drawn) | 92.2
Nc1nc(Nc2ccc(S(N)(=O)=O)cc2)nn1C(=S)Nc1c(F)cccc1F | 93
COc1cc2c(N3CCN(C(=O)Nc4ccc(OC(C)C)cc4)CC3)ncnc2cc1OCCCN1CCCCC1 | 90.9
Clc1ccc(Nc2nnc(Cc3ccncc3)c3ccccc23)cc1 | 93.3
CCN(CC)CCCCN1c2ccccc2Oc2ccc(Cl)cc21 | 91.1
O=C1NC(=O)/C(=C/c2ccc3c(c2)OC(F)(F)O3)S1 | 101
CC(C)n1cnc2c(Nc3cccc(Cl)c3)nc(NCCO)nc21 | 93.6
CC(C)(C)c1nc2c3cc[nH]c(=O)c3c3cc(F)ccc3c2[nH]1 | 79.9
NC(=O)c1cccc(-c2cc(Nc3ccc(OC(F)(F)F)cc3)ncn2)c1 | 83.6
CC(C)N(CCC(=O)c1ccc2ccccc2c1)Cc1ccccc1 | 92.7
C[C@@H](N)[C@H]1CC[C@H](C(=O)Nc2ccncc2)CC1 | 117
CNc1cc2c(Nc3cccc(Br)c3)ncnc2cn1 | 105
NC(=O)c1ccc(-c2nc(-c3ccc4c(c3)OCCO4)c(-c3ccccn3)[nH]2)cc1 | 93.2
CCCCc1c(-c2ccc(O)cc2)[nH]c2nccnc12 | 95.1
O=Nc1c(-c2c(O)[nH]c3ccccc23)[nH]c2ccccc12 | 96.7
O=C(c1ccccc1)c1ccc(N2CCOCC2)cc1O | 95.6
COc1cc2c(Nc3ccc(Br)cc3F)ncnc2cc1OCC1CCN(C)CC1 | 93.2
c1cc(-c2cnn3cc(-c4ccc(OCCN5CCCCC5)cc4)cnc23)ccn1 | 89.6
N#C/C(=C(/N)SC1C=CC=CC1)c1cccc(C(O)c2ccncc2)c1 (stereo not drawn) | 97.4
O=C(O)/C=C/c1cc(Br)c(Br)c(Br)c1Br | 89.4

Series 2
Target: Interferon regulatory factor 5, full length, phosphomimetic (IRF5, Homo sapiens, UniProt Q13568-2, residues 1-514, K96S/S451D/S453D/S456D/S462D)
Technique: protein-binding microarray
Form: double-stranded DNA, one strand shown
Sample: in vitro
Tested at: 250 nM
Setting: 60-bp whole probe
Together with: salmon DNA 0.4 mg/ml
Relative to: random background probes
Direction: higher = stronger binding
All sequences stand within: GCCTAGCAC … GTCTTGATTCGCTTGACGCTGCTG
Oligonucleotide | log fluorescence [z-score]
GACGGTATCCTCTTCCTGACGTGCTAG | -0.151
GACGGTTCCGGTGTCGGGACGTGCTAG | 0.363
CTGGTCTCCGGTGTTTCCTAGTGCTAG | -0.162
AGGACCATCCCTTATAAATAGGTGCTA | -0.332
TTAGGTCTCCGTCTCGGTTAGTGCTAG | 0.307
TCATGTGTCTTAAATAGGACTGTGCTA | 0.0959
GACGGTTTCGGGAATCGGGACGTGCTA | 5.5
TTAGGACTGCTTATCCTTGAGTGCTAG | -0.265

Series 3
Target: Fragile X messenger ribonucleoprotein 1, C-terminal low-complexity region (Fmr1, Mus musculus, UniProt P35922)
Technique: RNA Bind-n-Seq
Form: RNA
Sample: in vitro
Tested at: 200 nM
Setting: whole 134-nt RNA, ends assumed
Together with: 150 mM LiCl
Relative to: input library
Direction: higher = stronger binding
Each molecule: 7-deaza-guanosine replaces G
Oligonucleotide | log2 enrichment
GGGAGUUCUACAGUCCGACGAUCUGGCCCUGGUGGCAUGCGGGGAGGAAGAGGUGGCCUCAUGGAUCGUGGUGGUCCCGGUGGAAUGUUCAGAGGUGGCCGUGGUGGAGUCAGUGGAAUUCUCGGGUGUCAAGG | 0.126
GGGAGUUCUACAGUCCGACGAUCUUUUCAUACCGAUCUAGAGUUCGUCCUUGCGUGGUUUAUGGUGGUGCCGAUAUUGGUCAGCAGAUUCGAGACUUGGAACGUGGAUGCCAUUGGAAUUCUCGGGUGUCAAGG | -0.67
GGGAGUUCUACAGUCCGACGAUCGCAGGAAGUAAAAACAAAUGGAAAUGCUUCGGAUAGUGGCAGGGGUGGGGGUUGCUAAGGAAAGGGUGGGAUGGGUGUGGGUAAAGAGUUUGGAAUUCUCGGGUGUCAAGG | 1.92
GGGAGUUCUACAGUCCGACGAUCUAACUUUAGAGGAGGAUAUGAUGGAUAUGGCAGUGGACGUGGAUUUGGGGAUGGCUAUAAUGGGUAUGGAGGAGGACCUGGAGGUGGCAAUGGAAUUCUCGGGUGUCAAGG | 0.83
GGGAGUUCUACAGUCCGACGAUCUCCUGUGCUACACAUCGUAUGUACCGAAUCGGGGUGGGGAAAAAAAGGGGUUUUUGGGGAAAGUAUUAUGUUACGCCGUUCGGAUCUGCAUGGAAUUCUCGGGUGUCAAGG | -0.586
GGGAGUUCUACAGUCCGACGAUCACCAUGCAGGUGGGCAUCUUUGGGAAGUGGGGCAAGGGGGGGAUAGGGAGGGGGGUAAAAAUUUGGGAACAGGUGGUCCCAGGUCGUUUCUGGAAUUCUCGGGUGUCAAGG | 1.61
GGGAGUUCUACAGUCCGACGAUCCCUGUGCUACACAUCGUAUGUACCGAAUCGGUUUUUUUGGGUUUUUUUGGGGUUUUUUUGGAAAGUAUUAUGUUACGCCGUUCGGAUCUGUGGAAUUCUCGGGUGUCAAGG | -0.149
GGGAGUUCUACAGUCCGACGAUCUCCCUGUCCAAGCUGAGCGCCCUCAACGAGAGCCUUGCUCAGGACAAGUUGGAUCUGAACUGCCUUGUCACCCAGGUACACUGUGCACCUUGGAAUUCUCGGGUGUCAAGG | -0.423

Other studies, line by line
Substance | tested on | test | test system | setting | scale | endpoint | result
Cc1cnc(C2CC2)n1C1CCN(C(=O)c2ccoc2)CC1 |  |  | mouse, microsomes or S9 | 2 µM, 0.5 h |  | remaining compound | > 100%
PhoQ, residues 284 288 289 292 302 303 TGYLSA | PhoP, residues 12 14 15 18 19 VQALL (Escherichia coli, UniProt P23836) | Sort-seq, measured: YFP reporter | E. coli | PhoQ-PhoP variant library, together with: 10 µM Mg2+ | relative to: high Mg2+ state, higher = stronger signaling | fold induction | 11.8
NC(CCc1c(Cl)cccc1Cl)c1ccc(Cl)cc1Cl (stereo not drawn) |  |  | mouse, microsomes or S9 | 2 µM, 0.5 h |  | remaining compound | 1.24%
CCC(=O)N[C@@H]1CC[C@H](C(=O)N(C)c2ccc(-c3nc4ccccc4o3)cc2)C1 | sample D normal colon organoid | CellTiter-Glo |  | 1 µM, mean of replicates | relative to: DMSO | viability | 89.5%
Cc1nc(-c2ccc(F)cc2)cc2c1sc1ccccc12 |  |  | mouse, microsomes or S9 | 2 µM, 0.5 h |  | remaining compound | 0.811%

Excerpt of the above (series 3):
Oligonucleotide | log2 enrichment
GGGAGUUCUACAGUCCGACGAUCGCAGGAAGUAAAAACAAAUGGAAAUGCUUCGGAUAGUGGCAGGGGUGGGGGUUGCUAAGGAAAGGGUGGGAUGGGUGUGGGUAAAGAGUUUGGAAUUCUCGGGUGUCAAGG | 1.92
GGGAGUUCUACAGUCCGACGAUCUAACUUUAGAGGAGGAUAUGAUGGAUAUGGCAGUGGACGUGGAUUUGGGGAUGGCUAUAAUGGGUAUGGAGGAGGACCUGGAGGUGGCAAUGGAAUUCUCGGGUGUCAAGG | 0.83
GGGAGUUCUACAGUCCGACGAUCUCCUGUGCUACACAUCGUAUGUACCGAAUCGGGGUGGGGAAAAAAAGGGGUUUUUGGGGAAAGUAUUAUGUUACGCCGUUCGGAUCUGCAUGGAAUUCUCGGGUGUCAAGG | -0.586
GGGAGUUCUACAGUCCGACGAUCACCAUGCAGGUGGGCAUCUUUGGGAAGUGGGGCAAGGGGGGGAUAGGGAGGGGGGUAAAAAUUUGGGAACAGGUGGUCCCAGGUCGUUUCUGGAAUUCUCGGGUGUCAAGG | 1.61
